# Measured values pooled from the literature.
# Protocols differ between the studies behind these lines.
# Organism: Klebsiella pneumoniae
Compound,test,system,setting,MIC
C#CCOc1ccc(CN[C@@]2(C)C[C@H](O[C@H]3[C@H](Oc4c5cc6cc4Oc4ccc(cc4Cl)[C@@H](O)[C@@H](NC(=O)[C@@H](CC(C)C)NC)C(=O)N[C@@H](CC(N)=O)C(=O)N[C@H]6C(=O)N[C@H]4C(=O)N[C@H](C(=O)N[C@H](C(=O)NCC(N)=O)c6cc(O)cc(O)c6-c6cc4ccc6O)[C@H](O)c4ccc(c(Cl)c4)O5)O[C@H](CO)[C@@H](O)[C@@H]3O)O[C@@H](C)[C@H]2O)cc1OC,broth microdilution,"ATCC 27736, cation-adjusted Mueller-Hinton broth","18 to 20 h, 37 °C, 0.002% polysorbate 80",> 128 µg/mL
CCCCCCCC(=O)N[C@@H](CCN)C(=O)N[C@H](C(=O)N[C@@H](CCN)C(=O)N[C@H]1CCNC(=O)[C@H]([C@@H](C)O)NC(=O)[C@H](CCN)NC(=O)[C@H](CCN)NC(=O)[C@H](CC(C)C)NC(=O)[C@@H](Cc2ccc(Br)cc2)NC(=O)[C@H](CCN)NC1=O)[C@@H](C)O,broth microdilution,"ATCC 13883, colistin-susceptible",,0.25 to 1 µg/mL
CC[C@H](C)[C@H](NC(=O)[C@@H](CCCNC(=N)N)NC(=O)[C@H](CCCNC(=N)N)NC(=O)[C@H](Cc1c[nH]cn1)NC(=O)[C@H](Cc1c[nH]c2ccccc12)NC(=O)[C@H](CCCNC(=N)N)NC(=O)[C@@H]1CCCN1C(=O)[C@H](CCCNC(=N)N)NC(=O)[C@@H]1CCCN1C(=O)[C@H](CC(C)C)NC(=O)[C@H](Cc1ccc(O)cc1)NC(=O)[C@@H]1CCCN1C(=O)[C@@H]1CCCN1C(=O)[C@H](CCCCN)NC(=O)[C@H](CC(=O)O)NC(=O)[C@@H](N)C(C)C)C(=O)N[C@@H](Cc1ccc(O)cc1)C(=O)N[C@@H](CC(N)=O)C(=O)N[C@H](CCCNC(=N)N)C(N)=O,broth microdilution,DSM 681,"18 h, 37 °C, 25% MHB2",2 µg/mL
CCn1c(-c2ccc(Br)cc2)c(-c2ccc(Br)cc2)n(CC)c1=[Se],broth microdilution,carbapenem-resistant BAA-1705,24 h,> 40 µM
COc1ccc2ccc(O)c(/C=N/[C@H]3CCCC[C@H]3/N=C/c3ccc(C)cc3O)c2c1,"bacterial growth, broth microdilution",carbapenem-resistant,,> 40 µM
C=CCO/N=C(\C(=O)N[C@@H]1C(=O)N(OS(=O)(=O)O)C1(C)C)c1csc(N)n1,agar dilution,"09-20, NDM-1",,1 µg/mL
CCCCCCCC(=O)N[C@@H](CCN)C(=O)N[C@H](C(=O)N[C@@H](CCN)C(=O)N[C@H]1CCNC(=O)[C@H]([C@@H](C)O)NC(=O)[C@H](CCN)NC(=O)[C@H](CCN)NC(=O)[C@H](CCCCCC)NC(=O)[C@@H](Cc2ccccc2)NC(=O)[C@H](CCN)NC1=O)[C@@H](C)O,broth microdilution,ATCC 13883,,8 to 16 µg/mL
CC[C@H](C)[C@H](NC(=O)[C@@H](CCCNC(=N)N)NC(=O)[C@H](CCCNC(=N)N)NC(=O)[C@@H]1CCCN1C(=O)[C@@H]1CCCN1C(=O)[C@H](CCCNC(=N)N)NC(=O)[C@@H]1CCCN1C(=O)[C@H](CCCNC(=N)N)NC(=O)[C@@H]1CCCN1C(=O)[C@H](CC(C)C)NC(=O)[C@H](Cc1ccc(O)c([N+](=O)[O-])c1)NC(=O)[C@@H]1CCCN1C(=O)[C@@H]1CCCN1C(=O)[C@H](CCCCN)NC(=O)[C@H](CC(=O)O)NC(=O)[C@@H](N)C(C)C)C(=O)N[C@@H](Cc1ccc(O)cc1)C(=O)N[C@@H](CC(N)=O)C(=O)N[C@H](CCCNC(=N)N)C(N)=O,broth microdilution,DSM 681,"18 h, 37 °C, 25% MHB2",4 µg/mL
CCCCCCCC(=O)N[C@@H](CCN)C(=O)N[C@H](C(=O)N[C@@H](CCN)C(=O)N[C@H]1CCNC(=O)[C@H]([C@@H](C)O)NC(=O)[C@H](CCN)NC(=O)[C@H](CCN)NC(=O)[C@H](CC(C)C)NC(=O)[C@@H](Cc2ccc(Cl)cc2)NC(=O)[C@H](CCN)NC1=O)[C@@H](C)O,broth microdilution,"ATCC 13883, colistin-susceptible",,0.5 to 1 µg/mL
COc1ccc2ccc(O)c(/C=N/[C@H]3CCCC[C@H]3/N=C/c3cc(C(C)(C)C)cc(C(C)(C)C)c3O)c2c1,"bacterial growth, broth microdilution",carbapenem-resistant,,> 40 µM
CC[C@H](C)[C@H](NC(=O)[C@H](Cc1c[nH]c2ccccc12)NC(=O)[C@H](Cc1ccc(O)cc1)NC(=O)[C@H](CCCCN)NC(=O)[C@H](CC(C)C)NC(=O)[C@H](CO)NC(=O)[C@@H](N)Cc1ccccc1)C(=O)N[C@@H](CCCNC(=N)N)C(=O)N[C@@H](Cc1ccc(O)cc1)C(=O)N[C@@H](CCCCN)C(=O)N[C@@H](CCCNC(=N)N)C(=O)N[C@@H](CCC(N)=O)C(=O)NCC(=O)N[C@@H](C)C(=O)N[C@@H](C)C(=O)N[C@@H](CCCNC(=N)N)C(=O)N[C@@H](Cc1ccccc1)C(N)=O,broth dilution,ATCC 700603,,> 100 µM
CC1(C)[C@H](NC(=O)/C(=N\OC2(C(=O)O)CC2)c2nsc(N)n2)C(=O)N1OS(=O)(=O)O,agar dilution,"2146, NDM-1",,32 µg/mL
CC[C@H](C)[C@H](NC(=O)[C@@H](CCCNC(=N)N)NC(=O)[C@H](CCCNC(=N)N)NC(=O)[C@@H]1CCCN1C(=O)[C@@H]1CCCN1C(=O)[C@H](CCCNC(=N)N)NC(=O)[C@@H]1CCCN1C(=O)[C@H](CCCNC(=N)N)NC(=O)[C@@H]1CCCN1C(=O)[C@H](CC(C)C)NC(=O)[C@H](Cc1ccc(O)cc1)NC(=O)[C@@H]1CCCN1C(=O)[C@@H]1CCCN1C(=O)[C@H](CCCCN)NC(=O)[C@H](CC(=O)O)NC(=O)[C@@H](N)C(C)C)C(=O)N[C@@H](Cc1cc(I)c(O)c(I)c1)C(=O)N[C@@H](CC(N)=O)C(=O)N[C@H](CCCNC(=N)N)C(N)=O,broth microdilution,DSM 681,"18 h, 37 °C, 25% MHB2",16 µg/mL
CC[C@H](C)[C@H](NC(=O)[C@H](CCCCN)NC(=O)[C@H](CCCCN)NC(=O)[C@H](Cc1c[nH]c2ccccc12)NC(=O)[C@H](Cc1ccccc1)NC(=O)[C@H](CCCCN)NC(=O)[C@H](CCCCN)NC(=O)[C@H](Cc1ccccc1)NC(=O)[C@H](CCCNC(=N)N)NC(=O)[C@@H](N)CCCCN)C(=O)N[C@@H](CCCCN)C(=O)N[C@@H](CC(N)=O)C(=O)N[C@@H](CO)C(=O)N[C@H](C(=O)N[C@@H](CCCCN)C(=O)N[C@@H](CCCCN)C(=O)N[C@@H](CCCNC(=N)N)C(=O)N[C@@H](C)C(=O)N[C@@H](CCCCN)C(=O)N[C@@H](CCCCN)C(=O)N[C@@H](Cc1ccccc1)C(=O)N[C@@H](Cc1ccccc1)C(=O)N[C@@H](CCCNC(=N)N)C(=O)N[C@@H](CCCCN)C(=O)N1CCC[C@H]1C(=O)N[C@@H](CCCNC(=N)N)C(=O)N[C@H](C(=O)N[C@H](C(=O)N[C@@H](C)C(=O)N[C@H](C(=O)N[C@@H](CO)C(=O)N[C@H](C(=O)N1CCC[C@H]1C(=O)N[C@@H](Cc1ccccc1)C(=O)O)[C@@H](C)CC)C(C)C)[C@@H](C)CC)C(C)C)C(C)C,broth microdilution,polymyxin-resistant,,1.56 to 3.12 µg/mL
CC1(C)[C@H](NC(=O)/C(=N\OCc2c(Cl)cccc2Cl)c2csc(N)n2)C(=O)N1OS(=O)(=O)O,agar dilution,"2146, NDM-1",,64 µg/mL
COc1ccc2ccc(O)c(/C=N/[C@H]3CCCC[C@H]3/N=C/c3ccccc3O)c2c1,"bacterial growth, broth microdilution",carbapenem-resistant,,> 40 µM
CC(C)[C@H](NC(=O)C(NC(=O)CC[C@H](N)C(=O)O)C(O)C(N)=O)C(=O)N(C)CC(=O)N[C@H](Cc1c[nH]c2ccc([N+](=O)[O-])cc12)C(=O)NC[C@@H]1NC(=O)[C@@H](Cc2c[nH]c3ccc([N+](=O)[O-])cc23)NC1=O (some centres unmarked),,MGH78578,"18 h, 37 °C",200 µM
CC[C@H](C)[C@H](NC(=O)[C@H](CCCCN)NC(=O)[C@H](CCCNC(=N)N)NC(=O)[C@H](Cc1c[nH]c2ccccc12)NC(=O)[C@@H](NC(=O)[C@H](CC(N)=O)NC(=O)[C@H](CCCNC(=N)N)NC(=O)[C@@H](NC(=O)[C@H](CCCNC(=N)N)NC(=O)[C@H](CC(N)=O)NC(=O)[C@H](CCCNC(=N)N)NC(=O)[C@H](CC(C)C)NC(=O)[C@H](CCCNC(=N)N)NC(=O)[C@H](CCCNC(=N)N)NC(=O)[C@H](Cc1ccccc1)NC(=O)[C@H](CCCNC(=N)N)NC(=O)CN)[C@@H](C)CC)[C@@H](C)CC)C(=O)NCC(=O)N1CCC[C@H]1C(=O)N[C@H](C(=O)N[C@@H](C)C(=O)NCC(=O)N1CCC[C@H]1C(=O)N[C@@H](CC(C)C)C(=O)N[C@H](C(=O)N[C@@H](CO)C(=O)N[C@@H](CCCNC(=N)N)C(=O)N[C@@H](Cc1ccccc1)C(=O)NCC(=O)O)[C@@H](C)CC)[C@@H](C)CC,CLSI agar dilution,ATCC 13883,"20 h, 37 °C",16 µg/mL
N=C(N)NCCC[C@@H]1NC(=O)[C@H](CCCNC(=N)N)NC(=O)[C@@H](C(c2ccccc2)c2ccccc2)NC(=O)[C@H](Cc2c[nH]c3ccccc23)NC(=O)[C@@H](C(c2ccccc2)c2ccccc2)NC(=O)[C@@H](CCCNC(=N)N)NC(=O)[C@@H](CCCNC(=N)N)NC1=O,,"1188718, multidrug-resistant",,> 64 µg/mL
CC[C@H](C)[C@H](NC(=O)[C@@H](CCCNC(=N)N)NC(=O)[C@H](CCCNC(=N)N)NC(=O)[C@@H]1CCCN1C(=O)[C@@H]1CCCN1C(=O)[C@H](Cc1ccccc1)NC(=O)[C@@H]1CCCN1C(=O)[C@H](CCCNC(=N)N)NC(=O)[C@@H]1CCCN1C(=O)[C@H](CC(C)C)NC(=O)[C@H](Cc1ccc(O)cc1)NC(=O)[C@@H]1CCCN1C(=O)[C@@H]1CCCN1C(=O)[C@H](CCCCN)NC(=O)[C@H](CC(=O)O)NC(=O)[C@@H](N)C(C)C)C(=O)N[C@@H](Cc1ccc(O)cc1)C(=O)N[C@@H](CC(N)=O)C(=O)N[C@H](CCCNC(=N)N)C(N)=O,broth microdilution,DSM 681,"18 h, 37 °C, 25% MHB2",4 µg/mL
CC1(C)[C@H](NC(=O)/C(=N\OC2(C(=O)O)CCCC2)c2csc(N)n2)C(=O)N1OS(=O)(=O)O,agar dilution,"2146, NDM-1",,2 µg/mL
COc1ccc2ccc(O)c(/C=N/[C@H]3CCCC[C@H]3/N=C/c3cc(F)ccc3O)c2c1,"bacterial growth, broth microdilution",carbapenem-resistant clinical isolate,,> 40 µM
CC[C@H](C)[C@H](NC(=O)[C@@H](CCCNC(=N)N)NC(=O)[C@H](CCCNC(=N)N)NC(=O)[C@H](CO)NC(=O)[C@H](Cc1c[nH]c2ccccc12)NC(=O)[C@H](CCCNC(=N)N)NC(=O)[C@@H]1CCCN1C(=O)[C@H](CCCNC(=N)N)NC(=O)[C@@H]1CCCN1C(=O)[C@H](CC(C)C)NC(=O)[C@H](Cc1ccc(O)cc1)NC(=O)[C@@H]1CCCN1C(=O)[C@@H]1CCCN1C(=O)[C@H](CCCCN)NC(=O)[C@H](CC(=O)O)NC(=O)[C@@H](N)C(C)C)C(=O)N[C@@H](Cc1ccc(O)cc1)C(=O)N[C@@H](CC(N)=O)C(=O)N[C@H](CCCNC(=N)N)C(N)=O,broth microdilution,DSM 681,"18 h, 37 °C, 25% MHB2",2 µg/mL

# Repeated from above:
Compound,test,system,setting,MIC
CC[C@H](C)[C@H](NC(=O)[C@H](CCCCN)NC(=O)[C@H](CCCNC(=N)N)NC(=O)[C@H](Cc1c[nH]c2ccccc12)NC(=O)[C@@H](NC(=O)[C@H](CC(N)=O)NC(=O)[C@H](CCCNC(=N)N)NC(=O)[C@@H](NC(=O)[C@H](CCCNC(=N)N)NC(=O)[C@H](CC(N)=O)NC(=O)[C@H](CCCNC(=N)N)NC(=O)[C@H](CC(C)C)NC(=O)[C@H](CCCNC(=N)N)NC(=O)[C@H](CCCNC(=N)N)NC(=O)[C@H](Cc1ccccc1)NC(=O)[C@H](CCCNC(=N)N)NC(=O)CN)[C@@H](C)CC)[C@@H](C)CC)C(=O)NCC(=O)N1CCC[C@H]1C(=O)N[C@H](C(=O)N[C@@H](C)C(=O)NCC(=O)N1CCC[C@H]1C(=O)N[C@@H](CC(C)C)C(=O)N[C@H](C(=O)N[C@@H](CO)C(=O)N[C@@H](CCCNC(=N)N)C(=O)N[C@@H](Cc1ccccc1)C(=O)NCC(=O)O)[C@@H](C)CC)[C@@H](C)CC,CLSI agar dilution,ATCC 13883,"20 h, 37 °C",16 µg/mL
